# Experimental data collected from several papers.
# Protocols differ between the studies behind these lines.
# Organism: Pseudomonas aeruginosa
Structure (SMILES),assay,system,setting,MIC
CCCCCCCCCCCCCCCC(=O)NCCCC[C@@H]1NC(=O)[C@H](CCCNC(=N)N)NC(=O)[C@H](CCCNC(=N)N)NC(=O)[C@H](CCCNC(=N)N)NC(=O)[C@H](CCCNC(=N)N)NC(=O)[C@H](CCCNC(=N)N)NC1=O,broth microdilution,PAO1,37 °C,> 143 mg/L
c1ccc(CSc2nc3ccccc3cc2CNCCC2CCN(C3CCCC3)CC2)cc1,"microbial growth, broth dilution",MDR,,32 mg/L
CCCCCCCCC/C=C\CCCc1cc(=O)c2ccccc2n1C,broth microdilution,Luria-Bertani broth,,> 256 mg/L
CC1C(=NOCc2cc(-c3ccc(Cl)cc3)no2)C(C)C(c2ccc(Cl)cc2)OC1c1ccc(Cl)cc1 (stereo not drawn),"microbial growth, broth dilution",MTCC741,24 h,25 mg/L
CC(C)[C@H](NC(=O)[C@H](CCCNC(=N)N)NC(=O)[C@H](CCCNC(=N)N)NC(=O)[C@@H](NC(=O)[C@H](C)NC(=O)[C@H](CC(N)=O)NC(=O)[C@H](CCCNC(=N)N)NC(=O)[C@@H](NC(=O)[C@H](CCCNC(=N)N)NC(=O)[C@H](CCCNC(=N)N)NC(=O)[C@@H](NC(=O)[C@@H](NC(=O)[C@H](CCCNC(=N)N)NC(=O)[C@H](CCCNC(=N)N)NC(=O)[C@H](Cc1c[nH]c2ccccc12)NC(=O)[C@H](Cc1c[nH]c2ccccc12)NC(=O)CN)[C@@H](C)O)C(C)C)C(C)C)C(C)C)C(=O)O,,clinical strain 110,"18 h, 37 °C",16 mg/L
CC[C@H](C)[C@H](NC(=O)[C@H](Cc1c[nH]cn1)NC(=O)[C@H](CCCCNC(=O)[C@@H](NC(=O)[C@H](CCCCN)NC(=O)CSC[C@H](NC(=O)[C@H](Cc1ccccc1)NC(=O)[C@H](CCCCNC(=O)[C@H](CC(C)C)NC(=O)[C@H](CCCCN)NC(=O)[C@H](CCCCN)NC(=O)c1ccc(O[C@@H]2O[C@H](CO)[C@H](O)[C@H](O)[C@H]2O)cc1)NC(=O)[C@H](CC(C)C)NC(=O)[C@H](CCCCN)NC(=O)[C@H](CCCCN)NC(=O)C[C@@H]1O[C@@H](C)[C@@H](O)[C@@H](O)[C@@H]1O)C(N)=O)[C@@H](C)CC)NC(=O)[C@@H](NC(=O)[C@H](CCCCN)NC(=O)CSC[C@H](NC(=O)[C@H](Cc1ccccc1)NC(=O)[C@H](CCCCNC(=O)[C@H](CC(C)C)NC(=O)[C@H](CCCCN)NC(=O)[C@H](CCCCN)NC(=O)c1ccc(O[C@@H]2O[C@H](CO)[C@H](O)[C@H](O)[C@H]2O)cc1)NC(=O)[C@H](CC(C)C)NC(=O)[C@H](CCCCN)NC(=O)[C@H](CCCCN)NC(=O)C[C@@H]1O[C@@H](C)[C@@H](O)[C@@H](O)[C@@H]1O)C(N)=O)[C@@H](C)CC)C(N)=O,,"PAO1, LB medium",,> 64 µM
N=C(N)NCCC[C@@H]1NC(=O)[C@H](CCCNC(=N)N)NC(=O)[C@H](CCCNC(=N)N)NC(=O)[C@H](CCCNC(=N)N)NC(=O)[C@H](Cc2c[nH]c3ccccc23)NC(=O)[C@H](CCCNC(=N)N)NC(=O)[C@H](CCCNC(=N)N)NC(=O)[C@@H](N)CCCn2cc(nn2)C[C@@H](C(N)=O)NC1=O,,ATCC 27853,"24 h, 37 °C",250 mg/L
CC[C@H](C)[C@H](NC(=O)CNC(=O)[C@@H](NC(=O)[C@@H](N)Cc1ccccc1)[C@@H](C)CC)C(=O)N[C@@H](CCSC)C(=O)N[C@@H](C)C(=O)N[C@H](C(=O)N[C@@H](CC(C)C)C(=O)N[C@@H](C)C(=O)N[C@@H](CO)C(=O)N[C@@H](CC(C)C)C(=O)N[C@H](C(=O)N[C@H](C(=O)N1CCC[C@H]1C(=O)N[C@@H](CCCCN)C(=O)N[C@@H](CC(C)C)C(=O)N[C@H](C(=O)N[C@@H](CCC(=O)O)C(=O)N[C@@H](CCCCN)C(=O)N[C@H](C(=O)N[C@@H](CCCCN)C(=O)N[C@@H](CCC(N)=O)C(=O)N[C@@H](C)C(=O)N[C@@H](CCCNC(=N)N)C(N)=O)[C@@H](C)CC)[C@@H](C)CC)[C@@H](C)CC)C(C)C)[C@@H](C)O,broth microdilution,ATCC 27853,,> 50 µM
CC(C)C[C@@H]1NC(=O)CSC[C@@H]2NC(=O)[C@H](CCCCN)NC(=O)[C@H](CC(C)C)NC(=O)[C@H](CCCCN)NC(=O)[C@H](CCCCNC(=O)[C@H](CC(C)C)NC1=O)NC(=O)[C@H](CC(C)C)NC(=O)[C@H](CC(C)C)NC(=O)CSC[C@@H](C(=O)N[C@@H](CCCCN)C(N)=O)NC(=O)[C@H](CC(C)C)NC(=O)[C@H](CCCCN)NC(=O)[C@H](CCCCN)NC2=O,,PAO1,18 h,> 256 mg/L
c1ccc(CCNC2CCCc3c2[nH]c2ccc(C4CCCCC4)cc32)cc1 (stereo not drawn),"microbial growth, broth dilution",ATCC10145,,> 41 mg/L
CC(C)C[C@@H]1NC(=O)[C@H](CC(C)C)NC(=O)[C@H](CCCCN)NC(=O)CSC[C@@H](C(N)=O)NC(=O)[C@H](CC(C)C)NC(=O)[C@H](CCCCN)NC(=O)[C@H](CCCCN)NC(=O)[C@@H]2CSCC(=O)N[C@@H](CCCCN)C(=O)N[C@@H](CC(C)C)C(=O)N[C@@H](CC(C)C)C(=O)N[C@@H](CCCCNC1=O)C(=O)N[C@@H](CCCCN)C(=O)N[C@@H](CC(C)C)C(=O)N2,,PAO1,18 h,> 256 mg/L
CC[C@H](C)[C@H](NC(=O)[C@H](CC(C)C)NC(=O)[C@H](CO)NC(=O)[C@H](CC(C)C)NC(=O)[C@@H](N)CCSC)C(=O)N[C@@H](Cc1ccccc1)C(=O)N[C@@H](CC(C)C)C(=O)N[C@@H](Cc1c[nH]cn1)C(=O)N[C@@H](CCCNC(=N)N)C(=O)N[C@@H](CC(C)C)C(=O)N[C@@H](CCCCN)C(=O)N[C@@H](CO)C(=O)N[C@@H](CCSC)C(=O)N[C@@H](CCCNC(=N)N)C(=O)N[C@@H](CCCCN)C(=O)N[C@@H](CCCNC(=N)N)C(=O)N[C@@H](CC(C)C)C(=O)N[C@@H](CC(=O)O)C(=O)N[C@@H](CCCNC(=N)N)C(=O)N[C@@H](CCCCN)C(=O)N[C@@H](CC(C)C)C(=O)N[C@@H](CCCNC(=N)N)C(=O)N[C@@H](CC(C)C)C(=O)N[C@@H](Cc1c[nH]c2ccccc12)C(=O)N[C@@H](Cc1c[nH]cn1)C(=O)N[C@@H](CCCNC(=N)N)C(=O)N[C@@H](CCCCN)C(=O)N[C@@H](CC(N)=O)C(=O)N[C@@H](Cc1ccc(O)cc1)C(=O)N1CCC[C@H]1C(=O)O,,ATCC 27853,together with: 1 mM MgCl2,80 mg/L

# Some of these lines once more:
Structure (SMILES),assay,system,setting,MIC
CCCCCCCCC/C=C\CCCc1cc(=O)c2ccccc2n1C,broth microdilution,Luria-Bertani broth,,> 256 mg/L
